Measurements gathered from unrelated publications.
Lines come from different studies, so protocols differ.
CDK3 with cyclin E: Cyclin-dependent kinase 3, with cyclin E (CDK3, Homo sapiens, UniProt Q00526)
CDK3: Cyclin-dependent kinase 3 (CDK3, Homo sapiens, UniProt Q00526)
CDK3 with cyclin E1: Cyclin-dependent kinase 3, with cyclin E1 (CDK3, Homo sapiens, UniProt Q00526)

The inhibition of `C=CC(=O)Nc1cccc(-c2cnc3[nH]cc(C(=O)NC(C)(C)C)c3n2)c1` is reported as 12% (CDK3 with cyclin E; enzyme activity, inhibitor; 0.1 µM).
`CCN1CCN(Cc2ccc(C(=O)Nc3ccc(C)c(NCc4cnc5[nH]ccc5c4OC)c3)cc2C(F)(F)F)CC1` gave a remaining binding of 95% (CDK3; binding, competition with immobilised ligand; 1 µM).
`Cc1cccc(O[C@H]2CCC[C@@H](C(C)CNCc3ccncc3)C2)c1` (relative stereo) gave an inhibition of -7% (CDK3 with cyclin E; kinase activity, kinome panel screening; 10 µM).
With `Nc1ncc2c(n1)-c1c([nH]c3ccc(C4=CCOCC4)cc13)CCC2` the remaining binding was 98% (CDK3; binding, competition with immobilised ligand; 1 µM).
Under “activity vs control”, `Cc1cc(C)nc(Nc2ccc([C@@H]3CCCN(C(=O)/C=C/c4c(C)nn(C)c4C)C3)nc2)n1` is recorded as 102% (CDK3; enzyme activity, inhibitor, ADP detection; 1 µM).
The remaining activity of `COc1ccc(NC(=O)Nc2ccc3c(c2)C(=O)N(C(C)CO)CC(C)C(CN(C)Cc2ccc4c(c2)OCO4)O3)cc1` (stereo not shown) is reported as 106% (CDK3 with cyclin E; kinase activity, KinaseProfiler; 0.03 µM, species human; relative to: control).
With `COc1ccc(C(=O)/C=C/c2ccccc2-c2c[nH]c3ccc(C#N)cc23)c(O)c1` the inhibition was 7% (CDK3 with cyclin E; enzyme activity, inhibitor; 20 µM).
For `CN1CCN(Cc2ccc(NC(=O)c3cccc(C#Cc4cnc(N)c5ncccc45)c3)cc2C(F)(F)F)CC1`, the remaining binding was 100% (CDK3; cell-free assay, competition with immobilised ligand; 0.5 µM).
The inhibition of `NC(=O)C[C@H]1CCc2sc3ncnc(O[C@H]4CC[C@H](N5CCOCC5)CC4)c3c21` is reported as 2% (CDK3 with cyclin E; enzyme activity, inhibitor; 10 µM).
For `O=C(Nc1cc(-c2ccnc3[nH]ccc23)c(Cl)cn1)[C@H]1CCC[C@@H](NC(=O)C(F)(F)F)C1`, the remaining binding was 9.7% (CDK3; binding, competition with immobilised ligand; 0.1 µM).
`C[C@]1(O)CCCN(c2nc(Nc3ccc(S(=O)(=O)N[C@H]4CC[C@H](CN5CCN(c6ccc(C7CCC(=O)NC7=O)cc6F)CC5)CC4)cc3)ncc2C(F)(F)F)C1` (stereo partly shown) gave a remaining binding of 44% (CDK3; binding, competition with immobilised ligand; 1 µM).
For `CCn1cc(C(=O)O)c(=O)c2c(N)c(F)c(NC3CCCCC3)cc21`, the inhibition was 16.5% (CDK3 with cyclin E1; kinase activity; 0.1 µM, added: ATP at Km).
`CN1C[C@@H](c2c[nH]c3cc(Br)ccc23)NC[C@@H]1c1c[nH]c2cc(Br)ccc12` gave a remaining activity of 100% (CDK3 with cyclin E1; enzyme activity, inhibitor; 10 µM).
`O=c1c(-c2ccc(Cl)c(CN3CCOCC3)c2)coc2cc(O)ccc12` gave a remaining activity of 94% (CDK3 with cyclin E; enzyme activity, inhibitor; 1 µM).
`Cc1cnc2nc1Nc1cccc(c1)COC/C=C/COCc1cc(ccc1OCCN1CCOCC1)N2` has a remaining signal of 96% (CDK3; cell-free assay; 0.1 µM).
`Cc1nn(C)c(C)c1/C=C/C(=O)N1CCC[C@H](Cc2ccc(Nc3ccccn3)nn2)C1` — result for “activity vs control”: 91% (CDK3; enzyme activity, inhibitor, ADP detection; 1 µM).
The remaining binding of `CNS(=O)(=O)Nc1nccc(Cc2c(C)c3ccc(Oc4ncccc4F)cc3oc2=O)c1F` is reported as 100% (CDK3; binding, competition with immobilised ligand; 10 µM).
`CNC(=O)C1CCN(c2cc(C)c(F)cc2NC(=O)c2ccc(-c3cc(O)ccc3C)c(C)c2)CC1` gave a remaining binding of 100% (CDK3; binding, competition with immobilised ligand; 1 µM).
For `O=C=[N][Ru-4]123([n]4c5ccc(O)cc5c5c6c(c7cc(F)c[n+]1c7c54)C(=O)NC6=O)[S+]1CC[S+]2CC[S+]3CC1` (stereo not shown), the remaining activity was 119% (CDK3 with cyclin E; enzyme activity; 100 nM, human enzyme, added: 10 µM ATP; relative to: untreated).
With `COc1c(Cl)cccc1Nc1c(-c2ccncc2C#C[C@@]2(C)CCCN2C(=O)/C=C/CN(C)C)[nH]c2c1C(=O)NCC2` the remaining binding was 93% (CDK3; binding, competition with immobilised ligand; 3 µM).
The inhibition of `C=CC(=O)N1Cc2nc(-c3cc(-c4cc(Cl)cnc4Cl)c(F)cc3F)n(-c3ccncn3)c2C1` is reported as -7.2% (CDK3 with cyclin E1; cell-free assay, inhibitor; 1 µM).
`CN1CCN(Cc2ccc(-c3ccc(CO[C@H]4CCC[C@@H]4NC(=O)c4cc(-c5cnn(C)c5)cnc4N)cc3)cc2)CC1` gave an inhibition of -10% (CDK3 with cyclin E1; enzyme activity, inhibitor; 0.1 µM).

For quick reference, copied from above:
The remaining activity of `COc1ccc(NC(=O)Nc2ccc3c(c2)C(=O)N(C(C)CO)CC(C)C(CN(C)Cc2ccc4c(c2)OCO4)O3)cc1` (stereo not shown) is reported as 106% (CDK3 with cyclin E; kinase activity, KinaseProfiler; 0.03 µM, species human; relative to: control).
`CN1CCN(Cc2ccc(-c3ccc(CO[C@H]4CCC[C@@H]4NC(=O)c4cc(-c5cnn(C)c5)cnc4N)cc3)cc2)CC1` gave an inhibition of -10% (CDK3 with cyclin E1; enzyme activity, inhibitor; 0.1 µM).
`CCN1CCN(Cc2ccc(C(=O)Nc3ccc(C)c(NCc4cnc5[nH]ccc5c4OC)c3)cc2C(F)(F)F)CC1` gave a remaining binding of 95% (CDK3; binding, competition with immobilised ligand; 1 µM).
